Measurements from different studies.
“And” joins repeats or separate records; there may be more than shown. ± gives the spread as reported.
USP16 ZnF-UBD domain: Ubiquitin carboxyl-terminal hydrolase 16, ZnF-UBD domain (USP16, Homo sapiens, UniProt Q9Y5T5)
UniProt Q9Y5T5, sequence (whole entry, looked up): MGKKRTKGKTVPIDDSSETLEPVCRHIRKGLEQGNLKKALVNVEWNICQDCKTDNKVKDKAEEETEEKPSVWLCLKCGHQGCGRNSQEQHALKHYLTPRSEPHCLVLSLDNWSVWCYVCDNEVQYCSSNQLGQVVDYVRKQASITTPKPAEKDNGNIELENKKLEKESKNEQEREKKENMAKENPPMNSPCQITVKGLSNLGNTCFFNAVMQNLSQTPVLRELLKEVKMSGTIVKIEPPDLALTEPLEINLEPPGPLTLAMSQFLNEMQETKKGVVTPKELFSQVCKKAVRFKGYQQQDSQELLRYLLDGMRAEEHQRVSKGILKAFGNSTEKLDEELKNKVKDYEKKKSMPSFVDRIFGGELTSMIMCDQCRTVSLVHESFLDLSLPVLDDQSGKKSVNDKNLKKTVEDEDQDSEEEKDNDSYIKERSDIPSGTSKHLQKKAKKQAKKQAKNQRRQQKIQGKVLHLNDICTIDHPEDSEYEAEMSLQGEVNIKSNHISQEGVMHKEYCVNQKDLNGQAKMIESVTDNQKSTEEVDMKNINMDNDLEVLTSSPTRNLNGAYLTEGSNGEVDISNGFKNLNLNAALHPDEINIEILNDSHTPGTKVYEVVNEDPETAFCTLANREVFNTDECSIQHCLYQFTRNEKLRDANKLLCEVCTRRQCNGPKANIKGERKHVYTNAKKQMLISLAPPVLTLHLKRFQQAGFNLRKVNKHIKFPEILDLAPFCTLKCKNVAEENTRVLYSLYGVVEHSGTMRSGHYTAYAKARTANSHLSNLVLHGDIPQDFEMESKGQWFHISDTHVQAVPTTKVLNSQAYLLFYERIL
UniProt Q6NT16, sequence (whole entry, unmodified, looked up): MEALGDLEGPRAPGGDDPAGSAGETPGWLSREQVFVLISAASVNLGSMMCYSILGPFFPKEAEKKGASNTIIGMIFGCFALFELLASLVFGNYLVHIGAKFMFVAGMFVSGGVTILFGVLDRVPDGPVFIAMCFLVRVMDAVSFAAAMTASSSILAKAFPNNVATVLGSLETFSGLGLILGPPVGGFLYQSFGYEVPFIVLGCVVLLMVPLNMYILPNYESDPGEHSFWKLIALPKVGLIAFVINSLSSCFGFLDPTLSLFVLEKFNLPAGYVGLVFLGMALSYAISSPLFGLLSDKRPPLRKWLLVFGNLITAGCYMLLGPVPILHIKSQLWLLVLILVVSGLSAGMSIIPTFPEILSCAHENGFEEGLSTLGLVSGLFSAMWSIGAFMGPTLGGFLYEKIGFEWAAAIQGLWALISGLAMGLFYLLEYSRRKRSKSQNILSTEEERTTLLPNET

Compound	tested on	assay	test system	setting	how to read	measurement	value
O=C(O)C(O)c1ccc(O)c(O)c1 (racemic)	–	binding, MIDAS equilibrium dialysis LC-MS	A2AR-BRIL thermostabilized	concentration not given	relative to: no-protein control	log2 fold change	-0.546
N#Cc1ccc2c(c1)[C@H]1CCCN(C(=O)c3ccc4[nH]cnc4c3)[C@H]1C2	–	–	T2DM patients with overweight or obesity, plasma	oral, 20 mg, day 15 (360 h), multiple dosing, mean	–	fasting plasma glucose	141 mg/dL
NC(=O)c1ccc[n+]([C@@H]2O[C@H](COP(=O)([O-])OP(=O)(O)OC[C@H]3O[C@@H](n4cnc5c(N)ncnc54)[C@H](O)[C@@H]3O)[C@@H](O)[C@H]2O)c1	–	binding, MIDAS equilibrium dialysis LC-MS	A2AR-BRIL thermostabilized	concentration not given	relative to: no-protein control	log2 fold change	-0.207
C[C@@H](O)[C@@H](CO)NC(=O)[C@@H](CCCNC(=N)N)NC(=O)[C@@H]1CCCN1C(=O)[C@@H]1CSSC[C@H](NC(=O)[C@H](Cc2ccccc2)NC(=O)CN2CCN(CC(=O)O)CCN(CC(=O)O)CCN(CC(=O)O)CC2)C(=O)N[C@@H](Cc2ccc(O)cc2)C(=O)N[C@@H](Cc2ccccc2)C(=O)N[C@@H](CCC(N)=O)C(=O)N[C@@H](CC(N)=O)C(=O)N1 [gallium-68 labelled]	–	–	normal saline	1 h, room temperature	–	radiochemical purity	> 99%
CC(C)NCC(O)c1ccc(O)c(O)c1 (stereo not drawn)	–	–	ventricular cardiomyocytes, C57BL/6 mouse	dose not given, 0.008 s	–	sarcomere length	1.72 µm
OC[C@H]1O[C@@H](c2ccc(Cl)c(Cc3ccc(O[C@H]4CCOC4)cc3)c2)[C@H](O)[C@@H](O)[C@@H]1O	–	fasting plasma glucose, exposure-response PK/PD model	type 2 diabetes patients	bootstrap median	–	typical Gmax	0.218%
CSc1cc(Oc2ccnc3[nH]c(=O)cnc23)ccc1NC(=O)Nc1cc(C(C)(C)C)nn1-c1ccccc1	patient-derived cell line clone A	RPPA, item: phosphorylated Tuberin	human	1 µM, 4 h	relative to: DMSO	phospho ratio	1.23
CN(C)C(=O)Nc1cccc(-c2ccc(N(C)C)cc2)c1	–	–	mouse high-fat diet	dose not given	–	plasma free fatty acids	0.488 mmol/L and 0.445 mmol/L and 0.325 mmol/L and 0.402 mmol/L and 0.427 mmol/L and 0.366 mmol/L
Cc1cc([C@H]2C[C@H]3[C@@H](CF)SC(N)=N[C@@]3(c3ccc(F)cc3F)CO2)on1	–	item: Aβx-40	wild-type mouse, brain	subcutaneous, 100 mg/kg, 1 h	–	brain Aβ40 level	1.97 ng/g
CSCCNc1nc(SCCC(F)(F)F)nc2c1ncn2[C@@H]1O[C@H](COP(=O)(O)OP(=O)(O)C(Cl)(Cl)P(=O)(O)O)[C@@H](O)[C@H]1O	–	platelet aggregation, light transmission aggregometry	human patients, platelet-rich plasma	dose not given, 3 h, with: TRAP 15 µM	–	inhibition	14.8 ± 19.9%
Cc1coc([C@H]2C[C@H]3[C@@H](CF)SC(N)=N[C@@]3(c3ccc(F)cc3F)CO2)n1	–	item: Aβx-40	Mus musculus wild-type, cerebrospinal fluid	subcutaneous, 80 mg/kg, 14 h	–	Aβ40 level	0.96 ng/mL
O=C(O)CNC(=O)C(CS)Cc1ccccc1 (stereo not drawn)	–	LC-MS/MS, item: extracellular Met-enkephalin	mouse striatal brain slices	10 µM, 20 min, with: 50 mM KCl	–	Met-enkephalin concentration	9310 pM and 7820 pM and 6490 pM and 13000 pM and 26400 pM and 7790 pM and 15200 pM
COc1cc2c(cc1OC)[C@H]1C[C@@H](O)[C@H](CC(C)C)CN1CC2	MFS-type transporter SLC18B1 (SLC18B1, Homo sapiens, UniProt Q6NT16, F251A)	binder	–	radiolabeled protein variants	–	Kd	204 µM
CNCCOC12CC3(C)CC(C)(CC(Cn4ncc(-c5ccc(N6CCc7cccc(C(=O)Nc8nc9ccccc9s8)c7C6)nc5C(=O)O)c4C)(C3)C1)C2	–	–	beagle dog, male, anaesthetised	intravenous bolus, 0.03 mg/kg, 120 min	relative to: baseline	heart rate change	-2%
O=C(O)C(O)c1ccccc1 (racemic)	–	binding, MIDAS equilibrium dialysis LC-MS	A2AR-BRIL thermostabilized	concentration not given	relative to: no-protein control	log2 fold change	0.0431
CCn1cc(-c2cc(Cn3ccoc3=N)cc3c2CCN([C@@H](C)c2cc(OC)ccn2)C3=O)c(C(F)(F)F)n1	HARA	cell growth	–	120 h	–	EC50	2.38 µM
CCOc1cc([C@@H](CS(C)(=O)=O)N2C(=O)c3cccc(NC(C)=O)c3C2=O)ccc1OC	–	–	mouse, human PBMC GvHD model, plasma	5 mg/kg once daily, unit not given	relative to: vehicle	plasma TNF-alpha difference	0.861
Nc1ncnc2c1ncn2[C@@H]1O[C@H](COP(=O)(O)OP(=O)(O)OP(=O)(O)OC[C@@H]2O[C@H](n3cnc4c(N)ncnc43)[C@@H](O)[C@H]2O)[C@@H](O)[C@H]1O	–	binding, MIDAS equilibrium dialysis LC-MS	A2AR-BRIL thermostabilized	concentration not given	relative to: no-protein control	log2 fold change	0.419
O=C(O)CCC1=Nc2cccc3cccc(c23)N1	USP16 ZnF-UBD domain	–	–	–	–	Kd	> 1000 µM
N#Cc1ccn2c(-c3ccncc3)c(-c3ccc(F)cc3)nc2c1	–	kinase binding, competitor, MIB/MS competition, item: SAK1	Candida albicans cell lysate	10 µM	relative to: DMSO	log2 fold change	-0.0369

Compound	tested on	assay	test system	setting	how to read	measurement	value
CO[C@H]1C[C@@H]2CC[C@@H](C)[C@@](O)(O2)C(=O)C(=O)N2CCCC[C@H]2C(=O)O[C@H]([C@H](C)C[C@@H]2CC[C@@H](OC(=O)NCCOCCOCCOCCOCCOCCOCCOCCOCCC(=O)N3CCc4cc(Cn5nc(-c6ccc7oc(N)nc7c6)c6c(N)ncnc65)ccc4C3)[C@H](OC)C2)C[C@@H](O)[C@H](C)/C=C(\C)[C@@H](O)[C@@H](OC)C(=O)[C@H](C)C[C@H](C)/C=C/C=C/C=C/1C	–	item: 4EBP1 phospho-Thr37/46	mouse, HCC1954 xenograft, tumour	1 to 3 mg/kg, weekly, end of dosing interval	–	p4EBP1 level	decreased
CC(C)CC(=O)SCCNC(=O)CCNC(=O)[C@H](O)C(C)(C)COP(=O)(O)OP(=O)(O)OC[C@H]1O[C@@H](n2cnc3c(N)ncnc32)[C@H](O)[C@@H]1OP(=O)(O)O	–	binding, MIDAS equilibrium dialysis LC-MS	A2AR-BRIL thermostabilized	concentration not given	relative to: no-protein control	log2 fold change	-0.272
CCCCOc1nc(N)c2c(n1)N(Cc1cccc(CN3CCCC3)c1)CC(=O)N2	–	qPCR	human, blood	dose not given, three dosing periods	relative to: baseline	MX1 mRNA level	increased
Cn1cc(-c2ccc(-c3cncc(Cl)c3N3CCC4(CCNC4=O)CC3)cc2)cn1	COLO 205	gene expression, microarray, item: MDM2 mRNA	–	concentration not given, 6 h	relative to: untreated cells	log2 fold change	2.54
Cc1cc(C(C)(C)C)c(O)c(C(C)(C)C)c1	–	DPPH	methanol	concentration not given, 60 min	–	DPPH radical scavenging	60 ± 0.38%
CC(C)C[C@H](NC(=O)C[C@H](O)[C@H](CC(C)C)NC(=O)[C@H](Cc1c[nH]cn1)NC(=O)CNC(=O)[C@@H](NC(=O)[C@H](C)NC(=O)[C@H](Cc1c[nH]c2ccccc12)NC(=O)[C@H](CCC(N)=O)NC(=O)[C@@H](Cc1ccccc1)NC(=O)COCCOCCNC(=O)CCC(C(=O)O)N1CCN(CC(=O)O)CCN(CC(=O)O)CC1)C(C)C)C(N)=O (stereo partly drawn) [lutetium-177 labelled]	–	–	female BALB/c nu/nu mice, tumor	intravenous, 50 pmol, 1 h	–	tissue uptake	6.9 ± 0.9 %ID/g
O=P(O)(O)C(Cl)(Cl)P(=O)(O)O	–	immunostaining	mouse, sham-operated, meninges	dose not given	relative to: day 1 over day 7	GFAP-positive area difference	0.14%
OC(CCN1CCCCC1)(c1ccccc1)C1CC2C=CC1C2 (stereo not drawn)	–	resting-state EEG	healthy elderly humans	oral, 4 mg, eyes closed, LS mean	relative to: baseline	change in EEG Alpha1-power Pz-O1	-40%
O=C(O)[C@@H](O)[C@H](O)[C@H](O)CO	–	binding, MIDAS equilibrium dialysis LC-MS	A2AR-BRIL thermostabilized	concentration not given	relative to: no-protein control	log2 fold change	-0.223
CN1CC[C@@H](c2c(O)cc(O)c3c(=O)cc(-c4ccc(C(F)(F)F)cc4Cl)oc23)[C@@H]1CO	–	RNA-seq	PBMC, human, AML	cycle 1 6 h	relative to: pretreatment	enriched MYC-regulated genes	41 genes
Cc1cc(Nc2cc3ncccc3c(N[C@@H]3C[C@H]4CC[C@@H](C3)N4CCC#N)n2)n[nH]1	–	–	moderate-severe ulcerative colitis patients	270 mg, day 28, unit not given	relative to: baseline	change in total Mayo	-2.5
CCn1cc(-c2cc(Cn3ccnc3)cc3c2CCN([C@H](c2cc(OC)ccn2)C2CC2)C3=O)c(C(F)(F)F)n1	HCC78	cell growth, inhibitor	–	120 h	–	EC50	15.3 µM
O=C(O)CNC(=O)Cc1ccccc1	–	–	ventricular cardiomyocytes, C57BL/6 mouse	dose not given, 0.348 s	–	sarcomere length	1.72 µm
NCCCC[C@H](N)C(=O)O	–	binding, MIDAS equilibrium dialysis LC-MS	A2AR-BRIL thermostabilized	concentration not given	relative to: no-protein control	log2 fold change	-0.0167
C[C@H](Oc1ccc(Br)cc1-c1ccon1)C(=O)O	–	first response latency	human, tibialis anterior muscle	50 mg, 30 Hz, single ascending dose	–	difference from placebo	0.162%
NC(=O)c1cnc2[nH]ccc2c1N[C@@H]1[C@@H]2CC3C[C@H]1C[C@@](O)(C3)C2	–	flow cytometry	Japanese healthy men, blood	oral, 30 mg twice daily, 72 h after day 7 dose	relative to: baseline	CD4+ naive T-cell change	-0.7%
COc1ncc(-c2nc3c(n2C(C)C)[C@H](c2ccc(Cl)cc2)N(c2cc(Cl)cn(C)c2=O)C3=O)c(OC)n1	–	International Working Group criteria	human acute myeloid leukemia patients	oral, 20 to 30 mg, response Unknown, low-dose	–	best overall response	0%
OC[C@@H](O)[C@H](O)[C@H](O)[C@@H](O)CO	–	binding, MIDAS equilibrium dialysis LC-MS	A2AR-BRIL thermostabilized	concentration not given	relative to: no-protein control	log2 fold change	-0.142
O=C(O)CCc1ccccc1	USP16 ZnF-UBD domain	–	–	–	–	Kd	429 µM
